Published values pooled from the literature.
± marks the error that the study gave.

COc1cc(CCC[P+](c2ccccc2)(c2ccccc2)c2ccccc2)c(OC)c2c1OCO2.[I-]  LC50 (KM12; SRB): -4.44 log M
COc1ccc2c(c1)[nH]c1c(C)nccc12  methylation reduction (DU-145; bisulfite pyrosequencing, item: RASSF1A promoter CpG site 28; concentration not given; reference: vehicle): 0.71%
COc1c(C)c2c(c(O)c1C/C=C(\C)CCC(=O)O)C(=O)OC2  IC50 (MT3; cell proliferation): 0.851 µM
Nc1ncnc2c1ncn2[C@@H]1O[C@@H]2COP(=O)(O)O[C@H]3[C@@H](O)[C@H](n4cnc5c(=O)[nH]cnc54)O[C@@H]3COP(=O)(O)O[C@H]2[C@H]1O  pathway fold enrichment (HFF-1; RNA sequencing, item: Nicotinate metabolism; upregulated pathway; reference: Zika virus alone): 8.88
CC(C)N1CCC(NC2CCN(c3cccc(-c4cc5cc(F)ccc5[nH]4)c3)CC2)CC1  GI50 (Malme-3M): 1.94 µM
O=C(O)CCCc1ccc(N(CCCl)CCCl)cc1  maximum inhibition (human coronavirus OC43; virus-induced cell killing; MRC-5; screen): 2.21%
COc1c(CCC[P+](c2ccccc2)(c2ccccc2)c2ccccc2)cc2c(c1OC)OCO2.[I-]  TGI (Malme-3M; SRB): -4.99 log M
C/C=C(/C)C(=O)O[C@H]1C(C)=C2[C@H]([C@@H]1OC(=O)CCCCCCC)[C@@](C)(OC(C)=O)C[C@H](OC(=O)CCC)[C@@]1(O)[C@H]2OC(=O)[C@@]1(C)O  normalized enrichment score (HEK-293T; RNA-seq GSEA, item: Hallmark hedgehog signaling; 500 nM, 6 h; direction not given): 1.35
Cc1cc(C(C)(C)c2ccc(O)c(C)c2)ccc1O  G1 phase cells (HepG2 spheroids; Hoechst flow cytometry; 0.1 µM, 24 h): 70.8 ± 3.16%
Nc1nc(=S)c2[nH]cnc2[nH]1  maximum inhibition (human coronavirus OC43; virus-induced cell killing; MRC-5; screen): 56.9%

Repeated from above:
Nc1nc(=S)c2[nH]cnc2[nH]1  maximum inhibition (human coronavirus OC43; virus-induced cell killing; MRC-5; screen): 56.9%
